Measured values pooled from the literature.
Lines come from different studies, so protocols differ. Numbers after ± are the reported error.
Mode: substrate
MIPEP: Mitochondrial intermediate peptidase (MIPEP, Homo sapiens, UniProt Q99797)
HDAC8: Histone deacetylase 8 (HDAC8, Homo sapiens, UniProt Q9BY41)

By UniProt entry, the sequences of proteins in these tests, tags left out. Residues count along the entry.
UniProt Q99797, 36-713 limits assumed: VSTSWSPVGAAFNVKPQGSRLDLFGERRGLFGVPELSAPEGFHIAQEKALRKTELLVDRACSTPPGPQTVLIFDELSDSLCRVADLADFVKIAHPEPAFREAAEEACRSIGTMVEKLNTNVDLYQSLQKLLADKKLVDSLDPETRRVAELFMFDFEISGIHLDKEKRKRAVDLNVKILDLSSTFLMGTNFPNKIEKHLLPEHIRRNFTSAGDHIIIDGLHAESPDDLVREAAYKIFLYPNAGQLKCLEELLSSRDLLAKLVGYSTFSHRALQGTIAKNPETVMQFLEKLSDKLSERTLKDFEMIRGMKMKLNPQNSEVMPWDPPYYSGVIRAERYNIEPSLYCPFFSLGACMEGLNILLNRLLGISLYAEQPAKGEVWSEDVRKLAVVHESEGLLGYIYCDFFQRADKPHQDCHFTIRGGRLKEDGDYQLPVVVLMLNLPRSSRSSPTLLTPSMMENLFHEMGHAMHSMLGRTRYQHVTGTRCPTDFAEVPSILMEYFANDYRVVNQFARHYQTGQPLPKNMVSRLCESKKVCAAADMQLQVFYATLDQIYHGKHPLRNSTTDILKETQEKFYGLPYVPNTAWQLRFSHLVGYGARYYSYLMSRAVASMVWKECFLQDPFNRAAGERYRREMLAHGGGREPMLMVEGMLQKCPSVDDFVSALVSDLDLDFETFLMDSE
UniProt Q9BY41, whole entry: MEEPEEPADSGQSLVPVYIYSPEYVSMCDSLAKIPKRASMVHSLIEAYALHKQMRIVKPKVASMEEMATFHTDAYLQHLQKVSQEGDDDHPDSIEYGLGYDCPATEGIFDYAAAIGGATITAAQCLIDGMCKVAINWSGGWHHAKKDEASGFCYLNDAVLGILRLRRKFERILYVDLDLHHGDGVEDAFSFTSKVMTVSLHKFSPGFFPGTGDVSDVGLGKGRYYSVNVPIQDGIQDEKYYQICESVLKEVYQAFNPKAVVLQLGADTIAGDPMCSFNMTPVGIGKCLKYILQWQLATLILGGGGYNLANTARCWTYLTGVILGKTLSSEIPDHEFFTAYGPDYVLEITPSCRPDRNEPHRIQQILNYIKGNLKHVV
UniProt Q9UDY8, whole entry: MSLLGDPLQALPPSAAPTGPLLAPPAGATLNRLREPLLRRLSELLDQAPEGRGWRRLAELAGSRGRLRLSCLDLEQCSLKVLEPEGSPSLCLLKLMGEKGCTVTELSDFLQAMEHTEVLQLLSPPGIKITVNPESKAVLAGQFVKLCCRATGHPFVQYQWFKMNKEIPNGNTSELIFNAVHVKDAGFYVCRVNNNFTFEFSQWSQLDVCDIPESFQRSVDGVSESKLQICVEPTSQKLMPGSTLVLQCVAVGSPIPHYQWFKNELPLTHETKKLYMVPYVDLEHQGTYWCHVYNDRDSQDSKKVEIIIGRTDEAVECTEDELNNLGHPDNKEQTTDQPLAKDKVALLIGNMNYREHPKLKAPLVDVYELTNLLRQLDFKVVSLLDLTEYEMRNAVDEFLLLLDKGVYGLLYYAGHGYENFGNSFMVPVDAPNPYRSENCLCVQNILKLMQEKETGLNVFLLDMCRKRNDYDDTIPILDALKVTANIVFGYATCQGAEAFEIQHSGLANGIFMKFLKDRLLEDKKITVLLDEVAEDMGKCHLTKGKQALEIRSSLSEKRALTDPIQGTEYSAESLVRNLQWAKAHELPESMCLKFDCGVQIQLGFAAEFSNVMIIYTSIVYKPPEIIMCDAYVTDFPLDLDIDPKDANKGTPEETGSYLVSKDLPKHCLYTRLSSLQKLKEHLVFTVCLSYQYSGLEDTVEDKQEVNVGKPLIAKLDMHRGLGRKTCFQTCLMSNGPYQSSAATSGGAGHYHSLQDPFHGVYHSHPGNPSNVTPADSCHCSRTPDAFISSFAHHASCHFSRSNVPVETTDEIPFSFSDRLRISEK
UniProt P17706, whole entry: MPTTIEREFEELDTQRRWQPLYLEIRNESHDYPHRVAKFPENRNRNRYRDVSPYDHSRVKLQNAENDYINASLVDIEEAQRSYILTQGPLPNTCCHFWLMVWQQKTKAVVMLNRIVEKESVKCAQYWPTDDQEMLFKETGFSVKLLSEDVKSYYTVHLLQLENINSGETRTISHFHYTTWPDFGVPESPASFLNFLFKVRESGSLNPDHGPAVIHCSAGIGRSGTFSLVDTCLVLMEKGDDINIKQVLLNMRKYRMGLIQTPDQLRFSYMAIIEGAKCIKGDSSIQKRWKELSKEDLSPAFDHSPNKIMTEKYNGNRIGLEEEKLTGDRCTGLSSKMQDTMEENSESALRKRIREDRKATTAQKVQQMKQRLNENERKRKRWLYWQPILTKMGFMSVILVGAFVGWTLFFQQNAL
UniProt Q99K82, whole entry: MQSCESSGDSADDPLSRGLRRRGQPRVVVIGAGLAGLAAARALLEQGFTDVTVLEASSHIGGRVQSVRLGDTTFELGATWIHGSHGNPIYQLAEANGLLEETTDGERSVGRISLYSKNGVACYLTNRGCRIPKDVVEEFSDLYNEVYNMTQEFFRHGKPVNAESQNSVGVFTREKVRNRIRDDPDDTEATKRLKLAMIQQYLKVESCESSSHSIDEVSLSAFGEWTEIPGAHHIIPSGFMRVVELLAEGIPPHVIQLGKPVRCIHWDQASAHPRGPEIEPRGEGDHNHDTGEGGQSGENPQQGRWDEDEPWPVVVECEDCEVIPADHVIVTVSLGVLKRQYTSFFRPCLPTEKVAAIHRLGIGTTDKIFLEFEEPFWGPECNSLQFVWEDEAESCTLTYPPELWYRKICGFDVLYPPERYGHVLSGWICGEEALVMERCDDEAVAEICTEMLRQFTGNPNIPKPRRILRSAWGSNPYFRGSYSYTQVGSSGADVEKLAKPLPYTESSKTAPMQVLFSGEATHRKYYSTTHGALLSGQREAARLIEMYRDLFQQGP
UniProt O15379, whole entry: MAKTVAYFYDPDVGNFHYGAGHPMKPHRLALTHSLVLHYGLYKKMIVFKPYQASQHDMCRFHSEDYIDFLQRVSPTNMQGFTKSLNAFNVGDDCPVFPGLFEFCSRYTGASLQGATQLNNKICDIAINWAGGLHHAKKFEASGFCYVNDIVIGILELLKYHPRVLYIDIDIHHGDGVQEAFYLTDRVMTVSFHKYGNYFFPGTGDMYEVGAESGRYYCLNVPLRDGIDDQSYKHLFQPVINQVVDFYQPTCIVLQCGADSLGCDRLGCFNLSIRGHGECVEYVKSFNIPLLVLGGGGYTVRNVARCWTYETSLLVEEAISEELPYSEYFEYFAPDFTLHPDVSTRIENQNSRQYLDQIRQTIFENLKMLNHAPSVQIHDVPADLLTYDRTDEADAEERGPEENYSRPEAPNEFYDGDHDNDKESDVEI
UniProt Q9Y618, 389-480 partner limits assumed: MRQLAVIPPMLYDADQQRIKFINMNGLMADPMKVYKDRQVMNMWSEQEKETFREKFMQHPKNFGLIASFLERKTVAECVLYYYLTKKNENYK
UniProt Q96EB6, whole entry: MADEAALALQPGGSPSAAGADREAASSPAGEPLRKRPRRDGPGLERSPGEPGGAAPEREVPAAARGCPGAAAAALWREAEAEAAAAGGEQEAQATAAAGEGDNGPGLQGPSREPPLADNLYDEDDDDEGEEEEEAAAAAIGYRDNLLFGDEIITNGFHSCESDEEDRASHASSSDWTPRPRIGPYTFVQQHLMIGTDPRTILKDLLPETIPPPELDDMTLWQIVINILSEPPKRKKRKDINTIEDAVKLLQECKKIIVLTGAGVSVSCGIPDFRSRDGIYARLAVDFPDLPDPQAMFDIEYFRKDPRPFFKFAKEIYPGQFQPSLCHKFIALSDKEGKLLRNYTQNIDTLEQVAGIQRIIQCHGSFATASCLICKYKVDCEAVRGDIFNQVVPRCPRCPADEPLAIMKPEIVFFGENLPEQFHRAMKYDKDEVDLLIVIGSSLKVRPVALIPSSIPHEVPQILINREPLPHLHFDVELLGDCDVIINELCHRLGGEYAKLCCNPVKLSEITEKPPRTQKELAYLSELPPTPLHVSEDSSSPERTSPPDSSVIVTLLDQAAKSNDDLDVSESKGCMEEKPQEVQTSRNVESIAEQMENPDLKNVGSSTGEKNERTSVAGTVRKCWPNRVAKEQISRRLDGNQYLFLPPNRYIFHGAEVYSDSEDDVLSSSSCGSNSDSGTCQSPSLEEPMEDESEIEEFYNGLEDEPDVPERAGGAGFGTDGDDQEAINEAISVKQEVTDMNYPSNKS

CC(=O)N[C@@H](CC(C)C)C(=O)N[C@@H](CCCNC(=N)N)C(=O)N[C@@H](CO)C(=O)N[C@@H](CCCNC(=N)N)C(=O)Nc1ccc2c(CC(N)=O)cc(=O)oc2c1 gave a Km of 15.6 µM (MALT1 (Homo sapiens, UniProt Q9UDY8); fluorogenic peptide hydrolysis; 20 min preincubation, pH 7.5, 37 °C, enzyme 399 nM, citrate 0.9 M).
The Km of CC(C)C[C@H](NC(=O)[C@@H]1CCCN1C(=O)[C@H](CCC(N)=O)NC(=O)c1ccccc1N)C(=O)N[C@@H](C)C(=O)N[C@@H](CC(N)=O)C(=O)N[C@@H](CCCCN)C(=O)N[C@H](C(=O)N[C@@H](CCC(N)=O)C(=O)NCCNc1ccc([N+](=O)[O-])cc1[N+](=O)[O-])C(C)C is reported as 5.1 µM (MIPEP; FRET peptide hydrolysis).
CC(=O)N[C@H](C(=O)N[C@@H](Cc1ccccc1)C(=O)N[C@@H](CC(=O)O)C(=O)N[C@@H](CCC(N)=O)C(=O)N[C@@H](Cc1cc(=O)oc2cc(OP(=O)(O)O)ccc12)C(=O)N[C@@H](Cc1c[nH]cn1)C(=O)N[C@@H](CCC(=O)O)C(=O)N[C@@H](CO)C(=O)N1CCC[C@H]1C(N)=O)C(C)C gave a Km of 280 ± 30 µM (PTPN2 (Homo sapiens, UniProt P17706); peptide hydrolysis).
NCCCNCCCCNCCCNCc1ccccn1 has a Km of 245 ± 80 µM (Smox (Mus musculus, UniProt Q99K82); Amplex Red/HRP; pH 7.5, 37 °C).
CC(=O)NCCCC[C@H](NC(=O)CNC(=O)[C@H](CCCNC(=N)N)NC(C)=O)C(=O)Nc1ccc2c(C)cc(=O)oc2c1 gave a Km of 500 ± 200 µM (HDAC8; 25 °C).
CC(C)C[C@H](NC(=O)[C@@H]1CCCN1C(=O)[C@H](CCC(N)=O)NC(=O)c1ccccc1N)C(=O)N[C@@H](CCC(N)=O)C(=O)N[C@@H](CC(N)=O)C(=O)N[C@@H](CCCCN)C(=O)N[C@H](C(=O)N[C@@H](CCC(N)=O)C(=O)NCCNc1ccc([N+](=O)[O-])cc1[N+](=O)[O-])C(C)C gave a Km of 2.9 µM (MIPEP; FRET peptide hydrolysis).
With Cc1cc(=O)oc2cc(NC(=O)[C@H](Cc3ccc(O)cc3)NC(=O)[C@@H](NC(=O)[C@H](CC(C)C)NC(=O)[C@H](CC(C)C)NC(=O)CCC(=O)O)C(C)C)ccc12 the Km was 20 ± 4.2 µM (PSMB5 (Homo sapiens, UniProt P28074); chymotrypsin-like activity; pH 7.8, 37 °C, together with: oligomeric Aβ(1-42) 1 µM).
The Km of CC(=O)NCCCC[C@H](NC(=O)CNC(=O)[C@H](CC(C)C)NC(C)=O)C(=O)Nc1ccc2c(C)cc(=O)oc2c1 is reported as less than 10 µM (Histone deacetylase 3/Nuclear receptor corepressor 2 (HDAC3/NCoR2) (Homo sapiens, UniProt O15379+Q9Y618); fluorogenic trypsin-coupled; pH 7.4, 25 °C).
With CC(=O)NCCCC[C@H](NC(=O)CNC(=O)[C@H](CCCNC(=N)N)NC(C)=O)C(=O)N[C@@H](Cc1c[nH]c2ccccc12)C(N)=O the Km was 2700 ± 1700 µM (HDAC8; 25 °C).
CC(=O)N[C@@H](CCC(N)=O)C(=O)N[C@H](C(=O)N[C@@H](C)C(=O)N[C@@H](CCCNC(=N)N)C(=O)N[C@@H](CCCCNC(=O)CCc1ccc(N=Nc2ccc(N(C)C)cc2)cc1)C(=O)N[C@@H](CO)C(=O)N[C@H](C(=O)NCC(=O)NCC(=O)NCCCNC(=S)Nc1ccc2c(c1)C(=O)OC21c2ccc(O)cc2Oc2cc(O)ccc21)[C@@H](C)O)[C@@H](C)O has a Km of 0.1 ± 0.014 µM (SIRT1 (Homo sapiens, UniProt Q96EB6); enzyme activity, plate reader kinetics).
